Assay results from different studies.
Each line is one published result; not all experiments were run side by side.
Target: Misshapen-like kinase 1 (MINK1, Homo sapiens, UniProt Q8N4C8)

`CCn1cc(C(=O)O)c(=O)c2c(N)c(F)c(NC3CCCCC3)cc21` gave an inhibition of 7.5% (kinase activity; 0.1 µM, together with: ATP at Km).
`C=CC(=O)N1CCc2ccc(-n3c(=O)ccc4cnc5ccc(-c6cnn(C)c6)cc5c43)cc21` gave a remaining binding of 63% (KINOMEscan; 1 µM; baseline: DMSO control).
The inhibition of `C=CC(=O)Nc1cccc(-c2cnc3[nH]cc(C(=O)NC(C)(C)C)c3n2)c1` is reported as 29% (enzyme activity, inhibitor; 0.1 µM).
For `CNC(=O)C1CCN(c2cc(C)c(F)cc2NC(=O)c2ccc(-c3cc(O)ccc3C)c(C)c2)CC1`, the remaining binding was 81% (binding, competition with immobilised ligand; 1 µM).
For `NC(=O)[C@@H](O)C[C@H]1CCc2sc3ncnc(O[C@H]4CC[C@H](N5CCOCC5)CC4)c3c21`, the inhibition was 13% (enzyme activity, inhibitor; 10 µM).
`O=C(Cc1ccc(OCc2ccccc2)cc1)NC1(C(=O)O)CCN(C(=O)c2ccc(-c3cccc(Cl)c3)cc2)CC1` — result for “activity vs control”: 108% (enzyme activity, inhibitor; 10 µM).
`Cc1cccc(O[C@H]2CCC[C@@H](C(C)CNCc3ccncc3)C2)c1` (relative stereo) gave an inhibition of -9% (enzyme activity, inhibitor; 1 µM).
For `COc1c(Cl)cccc1Nc1c(-c2ccncc2C#C[C@@]2(C)CCCN2C(=O)/C=C/CN(C)C)[nH]c2c1C(=O)NCC2`, the remaining binding was 12% (binding, competition with immobilised ligand; 3 µM).
With `COc1cc(Nc2nc(C)cc(-c3cnn4nc(OC)ccc34)n2)cc(C(F)(F)F)c1` the remaining binding was 79% (KINOMEscan; 1 µM, MINK; baseline: DMSO).
`CC(C)=CC1OC(C)(C)C2C=C3C(=O)C(Cl)=CC(O)C3C3C(O)C4OC4C(=O)C132` (centres unmarked) has a remaining binding of 60% (cell-free assay, competition with immobilised ligand; 10 µM).
`Cc1ccc(-c2c(/C=C(\C#N)C(=O)NC(C)C)n(CCCO)c3ncnc(N)c23)cc1` has a remaining binding of 99% (cell-free assay, competition with immobilised ligand; 1 µM).
`CNC1C[S+]2CC[S+]3CC[S+](C1)[Ru-4]321([N]=C=S)[n]2c3ccc(OC)cc3c3c4c(c5cc(F)c[n+]1c5c32)C(=O)NC4=O` (centres unmarked) has a remaining binding of 79% (KinomeScan; 0.1 µM; baseline: untreated).
For `C=CC(=O)N1Cc2nc(-c3cc(-c4cc(Cl)cnc4Cl)c(F)cc3F)n(-c3ccncn3)c2C1`, the inhibition was 9.9% (cell-free assay, inhibitor; 1 µM).
`CNC(=O)C[C@H](Cc1ccc(C#N)cc1)NC(=O)c1cc(-c2ccc(CN[C@H](C)c3ccc(C)cc3)o2)ccc1Cl`: “activity vs control” 90% (enzyme activity, inhibitor; 1 µM).

For quick reference, copied from above:
`CCn1cc(C(=O)O)c(=O)c2c(N)c(F)c(NC3CCCCC3)cc21` gave an inhibition of 7.5% (kinase activity; 0.1 µM, together with: ATP at Km).
